Results collected from several papers.
Each line is one published result; not all experiments were run side by side. Numbers after ± are the reported error.

`CCC1(CC)C(=O)N(c2cccc(C(=O)N3CCN(Cc4ccc(Br)cc4)CC3)c2)C1=O`: “activity vs control” under 5% (Dipeptidyl peptidase 8 (Homo sapiens, UniProt Q6V1X1); enzyme activity, inhibitor; 5 µM).
For `CCOC(=O)C(CC)(CCCSCCCCCCNC(=O)OC(C)(C)C)NC(=O)c1ccc(C2CC2)c(Cc2ccc(F)cc2)n1` (stereo not shown), the Emax was 78% (Cnr2 (Mus musculus, UniProt P47936); cAMP, agonist).
`CC[C@H](C)[C@H](NC(=O)[C@@H](NC(=O)[C@@H](NC(=O)[C@@H](NC(=O)[C@H](CCCNC(=N)N)NC(=O)[C@H](CCC(=O)O)NC(=O)[C@H](CCC(=O)O)NC(=O)[C@H](C)NC(=O)[C@H](CCC(=O)O)NC(=O)CNC(=O)[C@H](C)NC(=O)CN)C(C)C)C(C)C)C(C)C)C(=O)N[C@@H](CC(=O)O)C(=O)N[C@@H](CC(=O)O)C(=O)N[C@@H](CC(=O)O)C(=O)N[C@@H](CCC(=O)O)C(=O)N[C@@H](CC(=O)O)C(=O)N[C@@H](CC(=O)O)C(=O)N[C@@H](CC(=O)O)C(=O)N[C@@H](C)C(=O)N[C@@H](CCC(=O)O)C(=O)N[C@@H](CC(N)=O)C(=O)N[C@@H](CO)C(=O)N[C@@H](CO)C(=O)N[C@@H](CO)C(=O)N[C@@H](CCCNC(=N)N)C(=O)N[C@@H](Cc1ccc(O)cc1)C(=O)O` has a ΔH of 2.18 ± 0.4 kcal/mol (Small ubiquitin-related modifier 2, N-terminally truncated (Homo sapiens, UniProt P61956, C48A); binding, ITC; Tris buffer; pH 7.4, ΔN-SUMO2).
For `O=C1c2sc(-c3ccc(N4CCC(CO)CC4)nc3F)nc2CCN1c1cccnc1`, the inhibition was -9% (EDNRA (Homo sapiens, UniProt P25101); ligand displacement, radioligand; 1 µM).
For `CN(C)CCCSC(=S)N1CCN(C(=O)/C=C/c2coc3ccccc3c2=O)CC1`, “normalised MST response” read 0.0321 (Nucleoprotein (N, Tomato spotted wilt virus, UniProt P25999); binding, microscale thermophoresis; 0.4883 µM; dose series).
With `Cc1cc(C)cc(COc2cc3c(cc2OCc2cc(C)cc(C)c2)C2CC(O)(Cc4cn(CCOCCOCCNC(=O)CCCCC5SCC6NC(=O)NC65)nn4)CC(C)N2CC3)c1` (stereo not shown) the SILAC ratio was 3.61 (Importin-5 (Homo sapiens, UniProt O00410); biotinylated probe pull-down, refers to: IPO5; 10 µM probe; baseline: heavy over light).
For `COC(=O)[C@@]1(C)C=C(C(=O)OC(C)(C)C)C(=O)CC1`, the fraction bound was 0.168 (MAPK8 (Homo sapiens, UniProt P45983); D-peptide binding, inhibitor, FP peptide displacement; 500 µM; lower is stronger displacement).
The Tm of `Cc1cn(CC(=O)N(CC(=O)N[C@H]2COC[C@@H]2N(CC(=O)NCCOCCOCC(N)=O)C(=O)Cn2cnc3c(N)ncnc32)[C@H]2COC[C@@H]2NC(=O)CN(C(=O)Cn2cnc3c(N)ncnc32)[C@H]2COC[C@@H]2NC(=O)CN(C(=O)Cn2cnc3c(=O)[nH]c(N)nc32)[C@H]2COC[C@@H]2NC(=O)CN(C(=O)Cn2cc(C)c(=O)[nH]c2=O)[C@H]2COC[C@@H]2NC(=O)CN(C(=O)Cn2cnc3c(=O)[nH]c(N)nc32)[C@H]2COC[C@@H]2NC(=O)CN(C(=O)Cn2cc(C)c(=O)[nH]c2=O)[C@H]2COC[C@@H]2NC(=O)CN(C(=O)Cn2cnc3c(N)ncnc32)[C@H]2COC[C@@H]2NC(=O)CN(C(=O)Cn2cnc3c(=O)[nH]c(N)nc32)[C@H]2COC[C@@H]2N)c(=O)[nH]c1=O` is reported as 71.2 ± 0.1 °C (complementary RNA; duplex formation, UV melting curve fit; PBS; 1 µM, fit parameter α 0.5).
The binding stoichiometry of `O=C(CCCCCCS)Nc1ccccc1` is reported as 0.9 (HDAC8 (Homo sapiens, UniProt Q9BY41); ITC; Tris-HCl buffer; concentration not given, 288 K).
`CCCCCC(O)/C=C/C=O` (stereo not shown): “isoTOP-ABPP competition ratio” 1.6 (Elongation factor 2 (EEF2, Homo sapiens, UniProt P13639); competitive isoTOP-ABPP; Ramos soluble proteome; 100 µM, together with: iodoacetamide probe; baseline: DMSO over compound-treated, higher = stronger cysteine blockade).
`CC[C@H](C)[C@@H]1NC(=O)[C@H](Cc2ccc(O)cc2)NC(=O)[C@H](Cc2ccccc2)NC(=O)[C@H](Cc2ccccc2)NC(=O)[C@H](Cc2ccccc2)NC(=O)CSC[C@@H](C(=O)N[C@@H](Cc2c[nH]cn2)C(N)=O)NC(=O)[C@H](CC(N)=O)NC(=O)[C@H](Cc2c[nH]c3ccccc23)NC1=O` gave a ΔTm of 7.57 °C (STING1 (Homo sapiens, UniProt Q86WV6, H232R); thermal stability, DSF; 200 µM).
For `CC(=O)N[C@H]1[C@H]([C@H](O)[C@H](O)CNC(=O)c2ccc(-c3ccccc3)cc2)O[C@@](OCc2cccc(Cl)c2Cl)(C(=O)O)C[C@@H]1O`, the binding stoichiometry was 1.2 ± 0.08 (CD22 (Homo sapiens, UniProt P20273); isothermal titration calorimetry; concentration not given).
`CCCCCCCCCCCCCCCC(=O)OCC(CSC[C@H](N)C(=O)N[C@@H](CO)C(=O)N[C@@H](CCCCN)C(=O)N[C@@H](CCCCN)C(=O)N[C@@H](CCCCN)C(=O)N[C@@H](CCCCN)C(=O)NCCCCCC(=O)N[C@@H](CCCCN)C(=O)N[C@@H](CC(C)C)C(=O)N[C@H](C(=O)N[C@@H](Cc1ccccc1)C(=O)N[C@@H](Cc1ccccc1)C(=O)N[C@@H](Cc1ccc2ccccc2c1)C(=O)O)C(C)C)OC(=O)CCCCCCCCCCCCCCC` (stereo partly shown) gave a fibril diameter of 32.5 nm (Amyloid-beta precursor protein, fibrillar amyloid-beta (APP, Homo sapiens, UniProt P05067); TEM; 2.0 eq, 8 h, fibril 3, together with: APP 20 µM).

For quick reference, copied from above:
For `CCOC(=O)C(CC)(CCCSCCCCCCNC(=O)OC(C)(C)C)NC(=O)c1ccc(C2CC2)c(Cc2ccc(F)cc2)n1` (stereo not shown), the Emax was 78% (Cnr2 (Mus musculus, UniProt P47936); cAMP, agonist).
